Measurements of several laboratories.
Parts stem from different laboratories: compare values within a part only.

Sample 1
Cell line: HEK-293T
Read-out: pseudovirus infection
Organism: VSV pseudotyped with SARS-CoV-2 spike
Concentration: 10 µM
Time: 16 h
Baseline: vehicle-treated
Quantity: GFP-positive cells
Compound = CC(=O)O[C@H]1CC[C@@]2(C)C(=CC[C@@H]3[C@@H]2CC[C@]2(C)C(c4cccnc4)=CC[C@@H]32)C1; result = 74.8%
Compound = N#CC1(c2ccc(NC(=O)c3cccnc3NCc3ccncc3)cc2)CCCC1; result = 98.9%
Compound = O=C(O[C@H]1CN2CCC1CC2)N1CCc2ccccc2[C@@H]1c1ccccc1; result = 29.3%
Compound = C[C@@H](O[C@H]1OCCN(Cc2n[nH]c(=O)[nH]2)[C@H]1c1ccc(F)cc1)c1cc(C(F)(F)F)cc(C(F)(F)F)c1; result = 76.6%
Compound = O=S(=O)(O)Oc1ccc(C(c2ccc(OS(=O)(=O)O)cc2)c2ccccn2)cc1; result = 76.8%
Compound = CCCCCCCCCC(=O)O[C@H]1CC[C@H]2[C@@H]3CCC4=CC(=O)CC[C@@H]4[C@H]3CC[C@]12C; result = 93.1%

Sample 2
Target: Interferon regulatory factor 7, full length, phosphomimetic (IRF7, Homo sapiens, UniProt Q92985, residues 1-503, S101K/S471D/S472D/S475D/S476D/S477D/S483D/S484D/S487D)
Technique: protein-binding microarray
Molecule type: double-stranded DNA, one strand shown
Sample: in vitro
Concentration: 250 nM
Notes: 60-bp whole probe
Added: salmon DNA 0.4 mg/ml
Baseline: random background probes
Reading: higher = stronger binding
Quantity: log fluorescence
Shared flanks, not repeated: GCCTAGCAC … GTCTTGATTCGCTTGACGCTGCTG
Target sequence (chain): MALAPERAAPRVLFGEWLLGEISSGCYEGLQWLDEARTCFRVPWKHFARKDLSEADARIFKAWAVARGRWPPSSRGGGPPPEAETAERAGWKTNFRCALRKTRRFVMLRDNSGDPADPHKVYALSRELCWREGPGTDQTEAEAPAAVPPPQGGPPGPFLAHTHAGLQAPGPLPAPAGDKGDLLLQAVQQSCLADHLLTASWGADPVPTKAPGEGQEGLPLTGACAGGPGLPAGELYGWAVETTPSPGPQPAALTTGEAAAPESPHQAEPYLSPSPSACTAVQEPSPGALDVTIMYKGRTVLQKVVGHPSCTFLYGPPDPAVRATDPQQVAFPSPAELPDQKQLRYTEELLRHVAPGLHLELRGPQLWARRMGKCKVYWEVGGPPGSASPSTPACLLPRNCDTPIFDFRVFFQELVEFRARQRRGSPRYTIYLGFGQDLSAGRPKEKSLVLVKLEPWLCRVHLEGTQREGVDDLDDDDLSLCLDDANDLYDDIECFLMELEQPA
Strand = GTCGGTTTCGGTATCGGGACGTGCTAG; result = 11.1 z-score
Strand = TTAGGACTGGGATTCGGTTAGTGCTAG; result = 1.55 z-score
Strand = TCAAACTTCGGCCTCTAACTGTGCTAG; result = -0.317 z-score
Strand = TTAGGTTTCGGGTTTCGGTAAGTGCTA; result = 11.9 z-score
Strand = TTAGATATCAGTCGCGATTAGTGCTAG; result = 0.743 z-score
Strand = TGTCATATACACATCTTCTGGTGCTAG; result = 0.0284 z-score
Strand = GACGGACTGTGGACTGGGGACGTGCTA; result = -0.564 z-score
Strand = GACGGTTTCGGGACTGGGGTCGTGCTA; result = 3.72 z-score

Sample 3
Target: Replicase polyprotein 1ab, polymerase (rep, Severe acute respiratory syndrome coronavirus 2, UniProt P0DTD1)
Read-out: enzyme activity
Mode: inhibitor
Concentration: 20 µM
Quantity: inhibition
SMILES = CCOCCn1c(N2CCCN(C)CC2)nc2ccccc21; result = -2.23%
SMILES = NC(CO)C(=O)NNCc1ccc(O)c(O)c1O (stereo not drawn); result = -2.94%
SMILES = CC[C@H]1CN2CCc3cc(OC)c(OC)cc3[C@@H]2C[C@@H]1C[C@H]1NCCc2cc(OC)c(OC)cc21; result = -2.43%
SMILES = COc1cnc(NS(=O)(=O)c2ccc(N)cc2)nc1; result = 19.8%
SMILES = Cc1nc2ccc(NC(=O)Nc3ccnc4cccnc34)cc2o1; result = 6.16%
SMILES = C=C(c1ccc(C(=O)O)cc1)c1cc2c(cc1C)C(C)(C)CCC2(C)C; result = 2.2%
SMILES = Cc1cccc(-c2[nH]c(C(C)(C)C)nc2-c2ccc3c(c2)OCO3)n1; result = 0.64%
SMILES = O=C(Nc1ccccc1)N1CCC(Cc2cnc3ccccc3c2)CC1; result = 8.05%
SMILES = CC(C)n1cnc2c(C(=O)N[C@H]3CN4CCC3CC4)cc(Cl)cc21; result = -6.41%
SMILES = Oc1ccc(/C=C/c2cc(O)cc(O)c2)cc1; result = -0.05%
SMILES = CC(=O)[C@]1(N)Cc2c(O)c3c(c(O)c2[C@@H](O[C@H]2C[C@H](O)[C@H](O)CO2)C1)C(=O)c1ccccc1C3=O; result = 12.5%
SMILES = CCC[S+]([O-])c1ccc2[nH]c(NC(=O)OC)nc2c1 (stereo not drawn); result = -0.49%
SMILES = CC(C)(N)c1cc(C(=O)N[C@@H]2CCc3ccc(Oc4ccnc5c4CCC(=O)N5)cc3C2)cc(C(F)(F)F)c1; result = 3.78%
SMILES = CC(=O)N1CCN(c2ccc(OC[C@@H]3CO[C@@](Cn4ccnc4)(c4ccc(Cl)cc4Cl)O3)cc2)CC1 (racemic); result = 26.5%
SMILES = c1cncc(CN2CCC(n3ncc4c(N5CCOCC5)nc(-c5ccc6[nH]ccc6c5)nc43)CC2)c1; result = -4.85%
SMILES = CC(=O)N[C@H](Cc1ccc2ccccc2c1)C(=O)N[C@H](Cc1ccc(Cl)cc1)C(=O)N[C@H](Cc1cccnc1)C(=O)N[C@@H](CO)C(=O)N[C@@H](Cc1ccc(NC(=O)[C@@H]2CC(=O)NC(=O)N2)cc1)C(=O)N[C@H](Cc1ccc(NC(N)=O)cc1)C(=O)N[C@@H](CC(C)C)C(=O)N[C@@H](CCCCNC(C)C)C(=O)N1CCC[C@H]1C(=O)N[C@H](C)C(N)=O; result = 53.5%
SMILES = c1ccc2c(c1)sc1ccccc12; result = 9.29%
SMILES = Cc1cccn2c(=O)c(-c3nnn[nH]3)cnc12; result = -5.21%
SMILES = COc1cc(Nc2ncc(F)c(Nc3ccc4c(n3)NC(=O)C(C)(C)O4)n2)cc(OC)c1OC; result = -1.8%
SMILES = C[C@]12CCC(=O)C=C1C=C[C@@H]1[C@@H]2CC[C@@]2(C)[C@H]1CC[C@@]2(O)CCC(=O)O; result = -2.31%
SMILES = Cn1cc(-c2ccc(F)c(C(F)(F)F)c2)nc1C1CCN(c2ncnc3[nH]ncc23)CC1; result = -0.42%
SMILES = CCOC1O[C@H]([C@@H](COCc2ccccc2)OCc2ccccc2)[C@H](OCc2ccccc2)[C@H]1O (stereo partly drawn); result = -0.64%
SMILES = CNCCC=C1c2ccccc2C=Cc2ccccc21; result = 3.25%
SMILES = Oc1c(Br)cc(Br)c2cccnc12; result = 0.1%
SMILES = Cc1nccc2[nH]c(=O)ccc12; result = -7.22%

Sample 4
Target: Histone acetyltransferase KAT6A, both winged helices, GST fusion (KAT6A, Homo sapiens, UniProt Q92794, residues 1-181)
Technique: protein binding microarray
Molecule type: double-stranded DNA, one strand shown
Sample: in vitro
Concentration: not given
Notes: 8-mer, flanks averaged, mean of 2 arrays, mostly near background
Baseline: not given
Reading: higher = stronger binding
Quantity: E-score
Residues (chain): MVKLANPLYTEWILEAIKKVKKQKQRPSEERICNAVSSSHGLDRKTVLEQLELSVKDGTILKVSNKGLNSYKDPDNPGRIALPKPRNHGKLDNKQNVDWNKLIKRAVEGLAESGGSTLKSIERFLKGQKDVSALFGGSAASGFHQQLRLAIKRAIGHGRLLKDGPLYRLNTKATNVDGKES
Strand = AAAGTTCC; result = -0.0206
Strand = CGGATGAG; result = -0.0268
Strand = CGTATAAA; result = 0.244
Strand = AGTCTCTA; result = -0.251
Strand = CTTGGCCC; result = -0.102
Strand = GAAGCGAA; result = 0.0162
Strand = TTTGCAAA; result = -0.189
Strand = GAGTCTAA; result = -0.115

Sample 5
Target: Replicase polyprotein 1ab, main protease (rep, Severe acute respiratory syndrome coronavirus 2, UniProt P0DTD1)
Read-out: enzyme activity
Mode: inhibitor
Concentration: 20 µM
Notes: hit confirmation
Quantity: inhibition
SMILES = Nc1nc2nc[nH]c2c(=S)[nH]1; result = 34.6%
SMILES = CCCOc1ccc(CSc2nnc[nH]2)cc1; result = 69.8%
SMILES = CN(CCOc1ccc(-c2ccc3c(c2)OCO3)cc1C(C)(C)C)CC(=O)O; result = -9.4%
SMILES = N[C@@H](C(=O)N[C@@H]1C(=O)N2C(C(=O)O)=C(Cl)CS[C@H]12)c1ccccc1; result = 74.4%
SMILES = CCOC(=O)C1=C(N)Oc2ccc(Br)cc2[C@H]1[C@H](C#N)C(=O)OCC; result = 33.3%
SMILES = O=C(O)C1=CC(=C(c2ccc(O)c(C(=O)O)c2)c2ccc(O)c(C(=O)O)c2)C=CC1=O; result = 95.6%
SMILES = CCN(CC)S(=O)(=O)c1cccc(-n2sc3ccccc3c2=O)c1; result = 109%
